Literature values as cited in several papers.
Protocols differ between the studies behind these lines. Values joined by “and” are separate records of one study, mostly repeats; a detail may differ. Numbers after ± are the reported error.

CC1(C)O[C@H](COP2(=O)OCc3ccccc3O2)[C@H](C(=O)NO)O1 (some centres unmarked)
EC50 (Trypanosoma brucei; parasite growth): inactive

C=C[C@@H]1C[C@]1(NC(=O)[C@@H]1C[C@@H](Oc2ncc(OC)c3cc(Cl)ccc23)CN1C(=O)[C@@H](NC(=O)OC(C)(C)C)C(C)(C)C)C(=O)NS(=O)(=O)C1CC1
EC50 (hepatitis C virus; replicon replication; genotype 1b): 10 nM

CN1CCn2cc(C(=O)NCc3ccc(F)cc3F)c(=O)c(O)c2C1=O
EC50 (human immunodeficiency virus 1; single-round vector infection; wild-type integrase): 4.6 ± 0.7 nM

O=[N+]([O-])c1ccc(-c2nc3cc4cccnc4c(Cl)c3[nH]2)cc1
EC50 (bovine viral diarrhea virus; viral replication): 1200 nM

Cc1nc(NCC(F)(F)F)nc(N[C@@H]2C[C@H](CO)[C@@H](O)[C@H]2O)c1-c1nc2ccccc2s1
EC50 (hepatitis C virus; HCV replication, inhibitor): 30 nM

C=CC1CC1(NC(=O)C1CC(Oc2nccc3cc(OC)ccc23)CN1C(=O)C(NC(=O)OC(C)(C)C)C(C)(C)C)C(=O)O (centres unmarked)
EC50 (hepatitis C virus; replicon replication; genotype 1b): 2000 nM

O=C(OCC[18F])C1C2CCC(CC1c1ccc(/C=C\I)cc1)N2 (centres unmarked)
time to peak uptake (SERT; microPET; anaesthetised, putamen): 95 min

Cc1cc(O)c(=O)c(O)cc1C(=O)c1ccc(-c2ccccc2)cc1
EC50 (herpes simplex virus 2; viral replication): 80 nM

CC1(C)N=C(N)N=C(N)N1c1cccc(C(F)(F)F)c1
EC50 (respiratory syncytial virus; viral replication): ~8 nM

C=C[C@@H]1C[C@]1(NC(=O)[C@@H]1C[C@@H](Oc2nccc3c(OC)cccc23)CN1C(=O)[C@@H](NC(=O)OC(C)(C)C)C(C)(C)C)C(=O)NS(=O)(=O)C1CC1
EC50 (hepatitis C virus; replicon replication; genotype 1b): 19 nM and 25 nM

COCCCCCCN1CCn2cc(C(=O)NCc3ccc(F)cc3F)c(=O)c(O)c2C1=O
EC50 (human immunodeficiency virus 1; single-round vector infection; wild-type integrase): 4.6 ± 0.4 nM

O=C1[C@@H]2CCCN2[C@@H](c2ccc([N+](=O)[O-])cc2)N1c1ccc([N+](=O)[O-])cc1
EC50 (dengue virus 2; viral replication): 39400 ± 6200 nM

CN[C@H](CC(C)C)C(=O)N[C@H]1C(=O)N[C@@H](CC(N)=O)C(=O)N[C@H]2C(=O)N[C@H]3C(=O)N[C@H](C(=O)N[C@H](C(=O)O)c4cc(O)cc(O)c4-c4cc3ccc4O)[C@H](O)c3ccc(c(Cl)c3)Oc3cc2cc(c3O[C@@H]2O[C@H](CO)[C@@H](O)[C@H](O)[C@H]2O[C@H]2C[C@](C)(NCc3ccc(-c4ccc(Cl)cc4)cc3)[C@H](O)[C@H](C)O2)Oc2ccc(cc2Cl)[C@H]1O
Cmax (mouse, plasma; intravenous, 75 mg/kg (MTD)): 125 µg/mL

CC(C)N1CCn2cc(C(=O)NCc3ccc(F)cc3F)c(=O)c(O)c2C1=O
EC50 (human immunodeficiency virus 1; single-round vector infection; wild-type integrase): 3 ± 0.1 nM

C1CCCCCC2(CCCCC1)OOCCCOO2
EC50 (hepatitis C virus; viral RNA replication; Huh-7): 25 to 660 nM

COCCCN1CCn2cc(C(=O)NCc3ccc(F)cc3F)c(=O)c(O)c2C1=O
EC50 (human immunodeficiency virus 1; single-round vector infection; wild-type integrase): 4 ± 0.7 nM

CC(C)(C)n1ncc(C(=O)N/N=C/c2ccc(F)cc2)c1N
EC50 (tobacco mosaic virus; curative activity; plant): 139 µg/mL

O=C1C=C(c2ccc(C(F)(F)F)cc2)S(=O)(=O)c2ccc(F)cc21
EC50 (Leishmania panamensis; MHOM/CO/87/UA140-EGFP; intracellular amastigotes): 3000 nM

O=C(NCc1ccc(F)cc1F)c1cn2c(c(O)c1=O)C(=O)N(CCCCCO)CC2
EC50 (human immunodeficiency virus 1; single-round vector infection; wild-type integrase): 54.5 ± 3 nM

COc1cc2ccc(-c3nc4ccccc4n3Cc3ccccc3Cl)c(OC)c2c(OC)c1OC
EC50 (Zika virus; viral replication; African strain): 1900 nM

C=CC1CC1(NC(=O)C1CC(Oc2nccc3cc(OC)ccc23)CN1C(=O)C(NC(=O)OC(C)(C)C)C(C)C)C(=O)NS(=O)(=O)C1CC1 (centres unmarked)
EC50 (hepatitis C virus; replicon replication; genotype 1b): 17 nM

O=C(NCc1ccc(F)cc1F)c1cn2c(c(O)c1=O)C(=O)N(CCCCO)CC2
EC50 (human immunodeficiency virus 1; single-round vector infection; wild-type integrase): 75.7 ± 7.4 nM

Cc1cc(N2CC[C@@](C#N)(C3(C)CC3)C2=O)cc(C(=O)NCc2cc(F)cc(-c3cnn(C)c3)c2)n1
EC50 (Toxoplasma gondii; PRS T477A mutant): 186 nM

COc1cc(/C=C2\CCC/C(=C\c3ccc(O)c(OC)c3)C2=O)ccc1O
EC50 (dengue virus; plaque): 2340 ± 210 nM

O=C(NCc1ccc(F)cc1F)c1cn2ccn(CCCCO)c(=O)c2c(O)c1=O
EC50 (human immunodeficiency virus 1; single-round vector infection; wild-type integrase): 16.6 ± 2 nM

O=c1[nH]c(=O)n([C@H]2C[C@H](OC(c3ccccc3)(c3ccccc3)c3ccccc3)[C@@H](COC(c3ccccc3)(c3ccccc3)c3ccccc3)O2)cc1F
EC50 (dengue virus; viral replication): 1.2 µg/mL

COC(=O)N[C@H](C(=O)N1CCC[C@H]1c1ncc(-c2ccc(-c3ccc(-c4cnc([C@@H]5CC6(CN5C(=O)[C@@H](NC(=O)OC)C(C)C)OCCO6)[nH]4)cc3)cc2)[nH]1)C(C)C
EC50 (hepatitis C virus; replicon; genotype 1b): 0.011 nM

COCCCn1ccn2cc(C(=O)NCc3ccc(F)cc3F)c(=O)c(O)c2c1=O
EC50 (human immunodeficiency virus 1; single-round vector infection; wild-type integrase): 2 ± 0.2 nM

C=C[C@@H]1C[C@]1(NC(=O)[C@@H]1C[C@@H](Oc2cc(-c3ccccc3)nc3cc(OC)ccc23)CN1C(=O)[C@@H](NC(=O)OC(C)(C)C)C(C)(C)C)C(=O)NS(=O)(=O)c1ccccc1
EC50 (hepatitis C virus; replicon replication; genotype 1b): 20 nM

A few entries again:
Cc1cc(O)c(=O)c(O)cc1C(=O)c1ccc(-c2ccccc2)cc1
EC50 (herpes simplex virus 2; viral replication): 80 nM

C=C[C@@H]1C[C@]1(NC(=O)[C@@H]1C[C@@H](Oc2ncc(OC)c3cc(Cl)ccc23)CN1C(=O)[C@@H](NC(=O)OC(C)(C)C)C(C)(C)C)C(=O)NS(=O)(=O)C1CC1
EC50 (hepatitis C virus; replicon replication; genotype 1b): 10 nM

COc1cc(/C=C2\CCC/C(=C\c3ccc(O)c(OC)c3)C2=O)ccc1O
EC50 (dengue virus; plaque): 2340 ± 210 nM

C=C[C@@H]1C[C@]1(NC(=O)[C@@H]1C[C@@H](Oc2nccc3c(OC)cccc23)CN1C(=O)[C@@H](NC(=O)OC(C)(C)C)C(C)(C)C)C(=O)NS(=O)(=O)C1CC1
EC50 (hepatitis C virus; replicon replication; genotype 1b): 19 nM and 25 nM
